Experimental data gathered from unrelated publications.
Numbered parts are unrelated; each lists some results of a single study.
Chain of UniProt P42336 (whole entry, unmodified, looked up): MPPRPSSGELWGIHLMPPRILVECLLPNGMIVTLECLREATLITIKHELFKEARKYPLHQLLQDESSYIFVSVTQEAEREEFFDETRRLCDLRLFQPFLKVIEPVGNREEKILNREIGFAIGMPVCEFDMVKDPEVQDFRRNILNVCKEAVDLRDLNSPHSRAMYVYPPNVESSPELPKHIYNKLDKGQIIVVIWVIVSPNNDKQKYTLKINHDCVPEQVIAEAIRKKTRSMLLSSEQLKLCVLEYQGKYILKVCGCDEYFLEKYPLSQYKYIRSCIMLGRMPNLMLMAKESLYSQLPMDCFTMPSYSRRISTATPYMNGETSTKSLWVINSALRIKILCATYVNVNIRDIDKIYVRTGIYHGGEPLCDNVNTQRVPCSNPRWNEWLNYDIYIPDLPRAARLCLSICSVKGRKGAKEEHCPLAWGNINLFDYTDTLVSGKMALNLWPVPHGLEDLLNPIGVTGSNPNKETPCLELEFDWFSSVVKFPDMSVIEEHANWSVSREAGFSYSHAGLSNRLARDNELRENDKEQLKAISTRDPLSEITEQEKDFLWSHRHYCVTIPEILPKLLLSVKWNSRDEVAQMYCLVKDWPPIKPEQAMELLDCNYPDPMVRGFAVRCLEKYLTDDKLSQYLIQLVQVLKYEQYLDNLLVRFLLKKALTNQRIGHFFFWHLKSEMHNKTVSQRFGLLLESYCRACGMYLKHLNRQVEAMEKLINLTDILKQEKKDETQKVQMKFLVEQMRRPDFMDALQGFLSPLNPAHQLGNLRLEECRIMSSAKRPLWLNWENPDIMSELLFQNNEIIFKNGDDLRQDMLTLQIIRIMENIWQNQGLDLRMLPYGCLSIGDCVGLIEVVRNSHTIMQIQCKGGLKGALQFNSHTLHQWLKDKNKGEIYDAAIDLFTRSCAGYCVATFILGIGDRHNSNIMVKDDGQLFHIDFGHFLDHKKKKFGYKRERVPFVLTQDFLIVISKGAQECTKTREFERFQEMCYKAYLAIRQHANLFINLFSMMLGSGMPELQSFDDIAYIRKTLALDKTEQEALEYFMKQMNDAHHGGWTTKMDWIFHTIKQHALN
Chain of UniProt O15146 (whole entry, looked up): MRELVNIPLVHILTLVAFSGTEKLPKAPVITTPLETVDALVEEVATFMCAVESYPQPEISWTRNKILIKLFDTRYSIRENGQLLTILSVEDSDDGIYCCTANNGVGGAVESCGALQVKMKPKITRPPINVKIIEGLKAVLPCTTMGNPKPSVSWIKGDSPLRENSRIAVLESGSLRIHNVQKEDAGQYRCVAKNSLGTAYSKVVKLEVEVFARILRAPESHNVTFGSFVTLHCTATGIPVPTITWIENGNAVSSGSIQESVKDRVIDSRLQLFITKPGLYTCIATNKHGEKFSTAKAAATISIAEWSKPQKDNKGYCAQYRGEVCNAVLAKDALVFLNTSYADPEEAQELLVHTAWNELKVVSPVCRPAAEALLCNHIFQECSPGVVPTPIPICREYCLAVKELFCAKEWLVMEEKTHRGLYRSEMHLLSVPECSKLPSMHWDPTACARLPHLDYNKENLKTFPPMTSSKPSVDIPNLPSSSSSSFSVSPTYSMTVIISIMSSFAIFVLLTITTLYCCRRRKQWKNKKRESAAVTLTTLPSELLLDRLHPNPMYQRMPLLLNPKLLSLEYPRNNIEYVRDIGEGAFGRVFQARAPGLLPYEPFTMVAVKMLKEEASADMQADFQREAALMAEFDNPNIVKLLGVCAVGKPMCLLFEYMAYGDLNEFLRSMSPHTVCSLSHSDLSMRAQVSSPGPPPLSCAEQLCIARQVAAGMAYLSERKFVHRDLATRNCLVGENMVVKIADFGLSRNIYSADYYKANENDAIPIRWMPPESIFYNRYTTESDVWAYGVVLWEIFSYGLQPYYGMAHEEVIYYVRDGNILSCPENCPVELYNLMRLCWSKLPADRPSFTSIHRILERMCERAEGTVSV
Chain of UniProt P37023 (whole entry, looked up): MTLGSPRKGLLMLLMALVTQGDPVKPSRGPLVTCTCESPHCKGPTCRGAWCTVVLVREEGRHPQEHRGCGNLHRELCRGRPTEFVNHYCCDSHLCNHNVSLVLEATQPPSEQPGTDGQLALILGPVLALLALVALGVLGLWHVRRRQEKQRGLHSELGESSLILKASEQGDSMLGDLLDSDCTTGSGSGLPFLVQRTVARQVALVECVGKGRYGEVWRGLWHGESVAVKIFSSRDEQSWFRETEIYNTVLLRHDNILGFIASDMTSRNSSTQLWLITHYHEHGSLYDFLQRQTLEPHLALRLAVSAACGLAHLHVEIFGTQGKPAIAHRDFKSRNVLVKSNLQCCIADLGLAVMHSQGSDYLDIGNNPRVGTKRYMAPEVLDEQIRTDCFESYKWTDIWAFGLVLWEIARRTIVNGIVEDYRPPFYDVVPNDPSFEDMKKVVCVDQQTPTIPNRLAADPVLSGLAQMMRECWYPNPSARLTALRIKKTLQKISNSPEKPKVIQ

Sample 1
Target: Centromere-binding protein 1, full length, His-tagged (CBF1, Saccharomyces cerevisiae, UniProt P17106, residues 1-351)
Chain of UniProt P17106 (whole entry, looked up): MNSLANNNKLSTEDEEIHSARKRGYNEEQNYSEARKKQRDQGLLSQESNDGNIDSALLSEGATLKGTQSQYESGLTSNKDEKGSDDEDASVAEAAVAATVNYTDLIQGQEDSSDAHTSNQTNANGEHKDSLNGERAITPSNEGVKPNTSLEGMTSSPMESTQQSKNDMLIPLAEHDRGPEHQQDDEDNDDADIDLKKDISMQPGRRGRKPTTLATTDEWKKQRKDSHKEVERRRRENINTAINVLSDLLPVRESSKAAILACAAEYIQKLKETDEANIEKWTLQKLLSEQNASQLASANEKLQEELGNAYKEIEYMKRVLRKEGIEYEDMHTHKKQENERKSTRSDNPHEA
Method: competition protein-binding microarray
Molecule type: double-stranded DNA, one strand shown
Sample: in vitro
Tested at: 2 µM
Notes: whole 60-bp probe, lowest competitor level
Added: Pho4 competitor, 0.05 µM
Direction: higher = stronger binding
Shared flanks, not repeated: … GTCTTGATTCGCTTGACGCTGCTG
| Sequence | fluorescence intensity [a.u.] |
| --- | --- |
| ATGCCAATAGAGCCGCACATGTAATTACTGGTTGAC | 94.3 |
| TGCGCAACAACTTGAGAAGTGGGTGTATGTCTAGAA | 76 |
| GCGATCCTTTTTTAGCACGTGAACGGTAATAACGGG | 4390 |
| TGCGCAACAACTTGTGAAGTGGGTGTATGTCTAGAA | 69.5 |
| ATATAAACGGATGAAAACGTGTTGATAATTGCATCA | 244 |
| TCCAACTGAGTCCATCACGCAGGCACCAGAAGCTGC | 82.1 |
| CGTAATTGACATGAACACATGCATTATATTTTTTGT | 273 |
| TGCGCAACAACTTTTCACGTGGAGTTATGTCTAGAA | 548 |

Sample 2
Target: SRSF protein kinase 1 (SRPK1, Homo sapiens, UniProt Q96SB4)
Chain of UniProt Q96SB4 (whole entry, looked up): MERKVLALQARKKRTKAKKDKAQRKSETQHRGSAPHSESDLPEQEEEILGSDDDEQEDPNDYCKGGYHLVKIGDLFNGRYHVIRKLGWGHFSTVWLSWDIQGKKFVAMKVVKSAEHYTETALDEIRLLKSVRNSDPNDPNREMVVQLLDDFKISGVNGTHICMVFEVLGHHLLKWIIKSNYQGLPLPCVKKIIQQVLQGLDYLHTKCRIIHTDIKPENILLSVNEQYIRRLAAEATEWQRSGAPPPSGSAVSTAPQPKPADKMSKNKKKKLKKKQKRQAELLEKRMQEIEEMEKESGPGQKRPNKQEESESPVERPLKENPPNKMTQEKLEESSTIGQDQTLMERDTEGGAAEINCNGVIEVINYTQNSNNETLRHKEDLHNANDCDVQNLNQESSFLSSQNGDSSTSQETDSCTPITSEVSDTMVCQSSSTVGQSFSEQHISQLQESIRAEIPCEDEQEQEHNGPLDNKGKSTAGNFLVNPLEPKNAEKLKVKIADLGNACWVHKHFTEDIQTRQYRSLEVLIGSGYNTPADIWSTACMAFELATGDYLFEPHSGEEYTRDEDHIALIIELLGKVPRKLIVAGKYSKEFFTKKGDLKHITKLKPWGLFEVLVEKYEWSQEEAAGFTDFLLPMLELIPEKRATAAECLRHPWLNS
Effect on: enzyme activity
Mode: inhibitor
Tested at: 0.5 µM
Baseline: control
| Compound | remaining activity [%] |
| --- | --- |
| COc1ccc(OC)c2c(=S)c3ccccc3[nH]c12 | 99.9 |
| CNC(=O)c1cc(Oc2ccc(NC(=O)Nc3ccc(Cl)c(C(F)(F)F)c3)cc2)ccn1 | 98.6 |
| O=c1c2ccccc2[nH]c(=S)n1CCN1CCC(=C(c2ccc(F)cc2)c2ccc(F)cc2)CC1 | 97.8 |
| C#Cc1cccc(Nc2ncnc3cc(OCCOC)c(OCCOC)cc23)c1 | 98 |
| COc1cc2nccc(Oc3ccc(NC(=S)NC(=O)c4ccccc4C)cc3)c2cc1OC | 98 |
| COc1ccc(CNC(=O)Nc2ncc([N+](=O)[O-])s2)cc1 | 92.9 |
| O=C(Nc1cccc(Nc2cc(Nc3cccc(C(F)(F)F)c3)ncn2)c1)C1CC1 | 86.4 |
| Cn1c2ccccc2c2c3c(c4c5ccccc5n(CCC#N)c4c21)CNC3=O | 98.3 |
| O=S(=O)(c1cccc2cnccc12)N1CCCNCC1 | 92.6 |
| O=C1NC(=O)C(c2cn(CCCO)c3ncccc23)=C1c1cnccn1 | 98 |
| N#CC(C#N)=C(N)/C(C#N)=C/c1ccc(O)cc1 | 100 |
| O=C(CCCc1ccc(-c2ccccc2F)cc1)Nc1ccc(O)cc1 | 98.6 |
| CO[C@H]1C[C@@H]2CC[C@@H](C)[C@@](O)(O2)C(=O)C(=O)N2CCCC[C@H]2C(=O)O[C@H]([C@H](C)C[C@@H]2CC[C@@H](O)[C@H](OC)C2)CC(=O)[C@H](C)/C=C(\C)[C@@H](O)[C@@H](OC)C(=O)[C@H](C)C[C@H](C)/C=C/C=C/C=C/1C | 108 |

Sample 3
SMILES: COc1ccc2cc(OCC3(C(=O)O)CN(C(=O)c4ccc(F)cc4)C3)ccc2c1
Method: competition with immobilised ligand
Tested at: 1 µM
| target | effect on | remaining binding |
| --- | --- | --- |
| Phosphatidylinositol 5-phosphate 4-kinase type-2 gamma (PIP4K2C, Homo sapiens, UniProt Q8TBX8) | cell-free assay | 100% |
| Muscle, skeletal receptor tyrosine-protein kinase (MUSK, Homo sapiens, UniProt O15146) | cell-free assay | 72% |
| 5'-AMP-activated protein kinase catalytic subunit alpha-1 (PRKAA1, Homo sapiens, UniProt Q13131) | cell-free assay | 100% |
| Atypical kinase COQ8A, mitochondrial (COQ8A, Homo sapiens, UniProt Q8NI60) | cell-free assay | 100% |
| Activin receptor type-1-like (ACVRL1, Homo sapiens, UniProt P37023) | binding | 93% |
| Phosphatidylinositol 4,5-bisphosphate 3-kinase catalytic subunit alpha isoform (PIK3CA, Homo sapiens, UniProt P42336, I800L) | cell-free assay | 90% |
| Cyclin-dependent kinase 18 (CDK18, Homo sapiens, UniProt Q07002) | cell-free assay | 98% |
| Dual specificity tyrosine-phosphorylation-regulated kinase 2 (DYRK2, Homo sapiens, UniProt Q92630) | cell-free assay | 84% |
| Mast/stem cell growth factor receptor Kit (KIT, Homo sapiens, UniProt P10721, V559D) | cell-free assay | 100% |
| Phosphatidylinositol 4,5-bisphosphate 3-kinase catalytic subunit alpha isoform (PIK3CA, Homo sapiens, UniProt P42336, M1043I) | cell-free assay | 100% |
| Receptor-type tyrosine-protein kinase FLT3 (FLT3, Homo sapiens, UniProt P36888, F691L/ITD) | cell-free assay | 100% |
| Serine/threonine-protein kinase ULK1 (ULK1, Homo sapiens, UniProt O75385) | cell-free assay | 92% |
| Calcium/calmodulin-dependent protein kinase type 1D (CAMK1D, Homo sapiens, UniProt Q8IU85) | cell-free assay | 100% |
| Serine/threonine-protein kinase Nek2 (NEK2, Homo sapiens, UniProt P51955) | cell-free assay | 100% |
| Mitogen-activated protein kinase kinase kinase 20 (MAP3K20, Homo sapiens, UniProt Q9NYL2) | cell-free assay | 100% |
| STE20-like serine/threonine-protein kinase (SLK, Homo sapiens, UniProt Q9H2G2) | cell-free assay | 85% |
| Cyclin-dependent kinase-like 3 (CDKL3, Homo sapiens, UniProt Q8IVW4) | cell-free assay | 89% |
| Serine/threonine-protein kinase Chk2 (CHEK2, Homo sapiens, UniProt O96017) | cell-free assay | 93% |
| NT-3 growth factor receptor (NTRK3, Homo sapiens, UniProt Q16288) | cell-free assay | 98% |

Sample 4
Target: Hepatocyte nuclear factor 3-alpha (Foxa1, Mus musculus, UniProt P35582, residues 1-468, full length assumed)
Chain of UniProt P35582 (whole entry, looked up): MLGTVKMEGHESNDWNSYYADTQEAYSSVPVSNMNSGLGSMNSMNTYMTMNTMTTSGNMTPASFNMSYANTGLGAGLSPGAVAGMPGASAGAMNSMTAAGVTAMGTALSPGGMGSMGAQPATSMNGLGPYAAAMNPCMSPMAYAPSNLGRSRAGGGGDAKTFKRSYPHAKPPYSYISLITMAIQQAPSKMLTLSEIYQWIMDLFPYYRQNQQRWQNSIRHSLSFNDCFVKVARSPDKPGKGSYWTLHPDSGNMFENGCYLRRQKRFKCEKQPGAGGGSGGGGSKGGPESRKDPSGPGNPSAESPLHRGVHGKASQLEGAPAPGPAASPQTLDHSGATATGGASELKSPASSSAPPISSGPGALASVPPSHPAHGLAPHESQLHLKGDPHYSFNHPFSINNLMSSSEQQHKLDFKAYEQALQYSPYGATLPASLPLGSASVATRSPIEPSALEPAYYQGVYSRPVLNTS
Method: EMSA with sequencing
Molecule type: double-stranded DNA, one strand shown
Sample: in vitro
Tested at: 10 and 20 nM
Notes: whole designed probe, mean of two concentrations, ends assumed
Baseline: negative control set to 0
Direction: higher = stronger binding
Shared flanks, not repeated: GTGAGCGGTGCCCATTGATGGGGAAC … TTTCACTGGGATCGTGGGGAC
| Sequence | normalised bound fraction |
| --- | --- |
| ATTCCAGGCAAAGCCAAATGACGATGCACCAGTGAGTCACCAGTGAGATTGCATTTAAAATCTAGCAGCCTCAGAGCCAAGACCAGCCTTGTGTAATCTGAGTTCAGGGAGGAGGGAAGATAGTGGAGTGAGACGTGCCGAGGCCAGCCGGCCTCTGGGCTTGGGGTGCGCTGACCTCTGGGGAGCCGAGTGC | -0.0593 ratio |
| AAGAGCCCGGCGGTAGGGCCATATGTTCCCCATAATCTCCAAAGCCGTCACTTCAATTAGAGCCTCCCCTGAGTTCTAATGCCCAATCCTGAGTAATCTAGCCGCTCTGAAAGAAGAACTCGGTTTCCAATTAAAAGTGTACTAACATTTCTCCTTCCTTTAATTCCCGCGGAGCAAAGCCCCGCGCGGGCGG | -0.0795 ratio |
| AAGAGGGAGTGAAGGTCTCTGAAAATGTAGGAGTCCCTTTAGTAGATGGGGAGAAATGGGTTAAAGATTTTTAAAAATTGCACAGACAGTAGTTGTTTGCTCTTTGGTTACAGGTGAATTATCTCTATCCTAGTTAGGAGTGGAGGACTGAAGTATGTCTCAATGCACAAACTAAGGCTGTGCAGGCTTGGAA | 0.11 ratio |
| GGAAGTCTGCAATGCTTTGAACAGCAGGGTGTGGGAGGAAGTGTTGGCCCTACTCACCCTGCCTGACCTCCCTGGGCTGTGAGCTCAGAGCTCTGTTTACATAGCTGAGGGACTGGGAATGCTGGAGTGGAGGAAGGAGGTGATGAATGATTCAGGAGGACACACAACATCCCTGCTTTTCTTTCCTGCTGGC | 0.421 ratio |
| ATACACTTCATTATGTCACTGTTGTTTGGTTGTGTTCTAGGCGAGAAACCACCTTTGGAAGGTTCACAGCAGCCCCAATTTAGCACTCTGCCATGTTTACATTGTCAGGCTGCATTGCCACTAGGGGGAACCATAGCTTTTTATCATCCCAGCCAGGGTGGCTGTGGGCAGCTTCTGCCTGGCAGGTAATAAG | 0.394 ratio |
| CCACTCAGCTGTTTTCTTAAACTTGGTTGAATAACTGGTATTCTTCCTGCTCACAAAGTCTTTGTTAGTGTGCATATTGCAAAACCATCCTAAGTAATCTGTCTGTGTCATCTGTATTAAAGGGAAGTTATGCATGGATTAGTGTATAATAGCATGGGTTAGGGAGAAAAATGAGTCACCAAAGTAGCTGGTT | -0.0594 ratio |
| CCCTCATCCTGGGTGTCGGGGTGGGAGGTGTTCTCATCATGAATGGGAGGCGTACCCAGATCCAGCGTGACTCACCATTAACCAAACCAGAGTGTAAACAAATGGCTGTGTGTCACACCATAATCGACATAGCAAGATATGATACATGCCAGGAGAGAAAAAGAAAGTGCTGATGGAAAAATAATCTCATTAG | 0.279 ratio |
| ATCTTCCCCCTCTTCCTTGCCCCACCAGCTCACCTTCCCGGGTTATTTGCAGATAGGAAAATAAATAAAGCCGGCATTCGTTAACCCTCTTCTGGCGCAAACTGCTGTTTGCTCTGGATGAATCAGTTTTCGCGGCCCGGTCAAGGCTCCGGGAGAGCAAAGCACCGTGTCAGGGCCATGATCCGGGGTGGCC | 0.343 ratio |
